Experimental data of several laboratories.
Numbered parts are unrelated; each lists some results of a single study. Substitutions count along the parent as printed.

Series 1 — method: protein-binding microarray; molecule type: double-stranded DNA, one strand shown; matrix: in vitro; tested at: 2540 nM top; notes: 60-bp whole probe; with: salmon DNA 0.4 mg/ml; relative to: random background probes; reading: higher = stronger binding; all sequences stand within: GCCTAGCAC … GTCTTGATTCGCTTGACGCTGCTG
Target: Interferon regulatory factor 3, full length, phosphomimetic (IRF3, Homo sapiens, UniProt Q14653, residues 1-427, S386D/S396D/S398D/S402D/T404D/S405D)
Sequence of UniProt Q14653 (whole entry, unmodified, looked up): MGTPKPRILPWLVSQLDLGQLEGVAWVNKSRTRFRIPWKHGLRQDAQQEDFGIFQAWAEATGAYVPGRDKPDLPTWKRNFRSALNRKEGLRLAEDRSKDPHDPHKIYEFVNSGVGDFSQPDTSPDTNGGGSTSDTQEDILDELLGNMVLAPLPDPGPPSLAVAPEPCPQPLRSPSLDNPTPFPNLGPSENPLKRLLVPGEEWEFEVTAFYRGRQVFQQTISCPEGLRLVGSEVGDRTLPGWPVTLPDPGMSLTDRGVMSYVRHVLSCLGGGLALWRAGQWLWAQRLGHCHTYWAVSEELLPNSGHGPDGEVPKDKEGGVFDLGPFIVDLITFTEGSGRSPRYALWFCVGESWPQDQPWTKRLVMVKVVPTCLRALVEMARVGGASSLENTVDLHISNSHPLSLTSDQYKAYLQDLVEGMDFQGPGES
Oligonucleotide | fitted relative affinity [z-score]
GACGAACTGGGGACAGGAGACGTGCTA | -0.332
GTCGTCACTGCCATAATGCGGTGCTAG | -0.18
GACGATTTCAGTCTCAAGACGTGCTAG | 2.23
GACGGTATCGACACTAGGGACGTGCTA | 0.699
TTAGGAATGGGACTGGGTTAGTGCTAG | -0.803
TTAGGCATCCTACTGCTTTAGTGCTAG | -0.31
GACGATCTCAGTATCGAGGCGTGCTAG | 0.769
TCATGTTTGTCACTCTCAGAGTGCTAG | 0.73
TTAGGTCTCGGTAGCGGTTAGTGCTAG | -0.358
AGAGTAAATTAAGTTAGAACGTGCTAG | -0.197
GATGGCCTCTTGCTCAGCCCGTGCTAG | -1.08
TCACTTCTGGGCTGTTTAACTGTGCTA | 1.01
TAAGCAAAAATGATTGGTTGGTGCTAG | -0.395
GACGGTTTCGGGTATCGGCACGTGCTA | 4.28
GACGGTAACGACACTGGGGACGTGCTA | -0.503
TTATATCTGTGTTATTAAATTGTGCTA | 0.327
CAAGGCAAGAAACAAACAACGTGCTAG | -0.306
ACTCAGTAACATTATTGTAGGTGCTAG | 0.273
GACCGTTTCGACTTTCGGGACGTGCTA | 4.09

Series 2 — target: CCNE2, cyclin fold, Cln2 fusion (human); method: yeast growth competition, sequencing; matrix: yeast; notes: strong parent motif; relative to: not given; reading: higher = stronger binding
Starting sequence: CDKN1B docking peptide (human); PSACRNLFGPVDH; partner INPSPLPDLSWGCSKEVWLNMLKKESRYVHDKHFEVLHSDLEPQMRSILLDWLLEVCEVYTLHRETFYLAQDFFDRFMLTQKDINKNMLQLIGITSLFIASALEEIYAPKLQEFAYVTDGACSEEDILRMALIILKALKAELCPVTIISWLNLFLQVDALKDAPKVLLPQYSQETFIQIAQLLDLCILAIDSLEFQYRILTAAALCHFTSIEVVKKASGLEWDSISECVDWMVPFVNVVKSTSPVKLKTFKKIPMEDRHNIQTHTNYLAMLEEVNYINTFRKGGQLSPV
Substitution | normalised enrichment score
PSACRNLFGCVDH [P10C] | 1.58
PSACRNLFGHVDH [P10H] | 0.888
PSACANAFGPVDH [R5A L7A] | -0.292
PSACRILFGPVDH [N6I] | 1.59
PSACRNQFGPVDH [L7Q] | -0.0179
PSACRNLFGPVRH [D12R] | 1.53
PSACRNLYGPVDH [F8Y] | -0.285
PSACRNLFGPVFH [D12F] | 0.82
PSACRNLWGPVDH [F8W] | 0.859
PSACSNLFGPVDH [R5S] | -0.175
PSACRNLFPPVDH [G9P] | 0.8
PSACRNLFGPADH [V11A] | 0.993
PSAKRNLFGPVDH [C4K] | 1.27
PFACRNLFGPVDH [S2F] | 0.863
PSACRRLFGPVDH [N6R] | 2.67
PSKCRNLFGPVDH [A3K] | 0.209
PSACFNLFGPVDH [R5F] | -0.0895
PSACRNLFGMVDH [P10M] | 0.53
PSACRNLFGPVDL [H13L] | 1.57

Series 3 — method: universal PBM; molecule type: double-stranded DNA, one strand shown; matrix: in vitro; tested at: not given; reading: higher = stronger binding
Target: Sal-like protein 4, full length isoform B (SALL4, Homo sapiens, UniProt Q9UJQ4-2, residues 1-616)
Notes: 8-mer, flanks averaged, mean of replicates
Target sequence (chain): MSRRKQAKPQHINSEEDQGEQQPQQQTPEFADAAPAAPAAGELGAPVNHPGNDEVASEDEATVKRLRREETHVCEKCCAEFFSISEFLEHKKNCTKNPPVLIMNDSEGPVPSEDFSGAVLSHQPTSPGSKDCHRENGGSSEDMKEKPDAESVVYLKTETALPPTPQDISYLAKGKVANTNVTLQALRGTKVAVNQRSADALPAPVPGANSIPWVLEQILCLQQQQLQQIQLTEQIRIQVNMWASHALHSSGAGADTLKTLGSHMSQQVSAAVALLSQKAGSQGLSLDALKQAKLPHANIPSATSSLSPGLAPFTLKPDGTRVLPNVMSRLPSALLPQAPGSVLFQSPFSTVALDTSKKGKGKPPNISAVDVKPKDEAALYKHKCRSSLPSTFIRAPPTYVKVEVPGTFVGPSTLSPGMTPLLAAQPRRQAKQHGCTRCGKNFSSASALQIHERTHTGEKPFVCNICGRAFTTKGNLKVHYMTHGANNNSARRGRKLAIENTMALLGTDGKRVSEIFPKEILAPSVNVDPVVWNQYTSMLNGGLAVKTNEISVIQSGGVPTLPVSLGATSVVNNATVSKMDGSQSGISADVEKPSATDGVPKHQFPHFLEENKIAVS
Oligonucleotide | E-score
AATTTTTG | 0.381
CGCCCATC | -0.221
AAACGGGT | 0.0286
ACCAATGA | 0.128
CAACTCAA | 0.0963
GAAACTCC | -0.332
ACAAGCGG | -0.0695
CCTCTAGA | -0.0818
CCCTAGGA | -0.134
ATTCGGGG | 0.00062
ACTGGTAG | -0.0864
AGCTAGAT | 0.097
GGTGGCGA | -0.131
CGTTGACA | -0.112
AGGTGTAT | 0.155
CATTTGAG | 0.11
GCTGATCA | -0.0991
ATCCTTTC | 0.196
CAGCATAC | -0.0449
CGTTAGTC | 0.028
AAAAGGCT | -0.121

Series 4 — method: RNA Bind-n-Seq; molecule type: RNA; matrix: in vitro; tested at: 365 nM; relative to: no-protein control; reading: higher = stronger binding
Target: RNA binding protein fox-1 homolog 2, RRM domain, GST-SBP tag (RBFOX2, Homo sapiens, UniProt O43251-10, residues 100-194)
Notes: natural RNA segment, single round, ends assumed
All sequences stand within: GGGAGUUCUACAGUCCGACGAUC … UGGAAUUCUCGGGUGCCAA
Construct (chain): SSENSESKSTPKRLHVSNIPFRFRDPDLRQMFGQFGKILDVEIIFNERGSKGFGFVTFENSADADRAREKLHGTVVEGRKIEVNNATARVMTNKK
Oligonucleotide | RBNS enrichment (R)
AUAGGUGCCCGCCACCAGACCCGGCUAAUUUUUUAGUUUUAGUAGAGACGGGGUUUCACCACGUUGGCCAGGCUGGUCUUAAAUGACCCUCUUAUUUUUAACUUGGAUAC | 0.295
UGGUUCUCUCAGGGCUUCGCCUUCAAGGGUUCUGGAGGAGGGAAGGGUCUGCAGGUUCCAUGGGUGACAGCCUGAGAUCUGUCCCUUCAACGGGCUGGGCUGGGUAUGUG | 1.5
UGGUCCUAUUCAGAGGACUCUUACCACGACGUUUCUGUUCUACACUUGGGUGGAGACCAGUUGACCAUAGAGCAUUUGCAGAGCCUCAUUGUUUGAUUUCUUGUGACUAU | 0.514
UGUGUGAAAAAGAUGCCAAUUAUUGUUACACAUUAAGUAAUCAAUAAAGAAAACUUCCAUAGCUAUUCAUUGAGUCAAAUUGUAAUGUGCUUUACCAAACAAGGUAUUUG | 0.324
GCCAAGUUCUACACCUUGUUUGGUCGGAGUUAUGAUGGACAAAACAGAAGCCACUCUCUCUCUCGCUCAUCUUUUUUUAAAACCACUGAUACGAAGAUCUUCUCAGAUGC | 1.36
AGGUUAGUGUUUAGCUCUACCAAACCUGAGUCAGCCGAAUGGAAGUUAUAUGGGCCUGUAACACAAACCUGAGUUUUAACCUAGUUCUAAUUUUAUAAGGCAUCUUAUUU | 0.689
UCUUUGCUGUUUGUAGUAGAGACAUUUUGAAUGAAACUUGGCACUGCUUGAUUCAAAACUGUGGAAACCAGAUCUGUUUAGUCUCCUGUUUGUAUGCGUUUGCUAAUGGU | 4.61
UCCUAACAACUUUUAUUUGACACAUUAAAAAAUUUCUGACUGUCCUUAAGACAGUAGAGAUGUCUCUCUUUUAUUUGAGUUUGUGACUGACUUUGCCUAUAUAUCUUUCU | 1.68

A few entries again (series 2):
Substitution | normalised enrichment score
PSACRNLFGPVRH [D12R] | 1.53
PSACRNLYGPVDH [F8Y] | -0.285
PSACRNLFGPVFH [D12F] | 0.82
PSACRNLWGPVDH [F8W] | 0.859
PSACSNLFGPVDH [R5S] | -0.175
PSACRNLFPPVDH [G9P] | 0.8
PSACRNLFGPADH [V11A] | 0.993
